Published values pooled from the literature.
Numbered parts are unrelated; each lists some results of a single study.

Sample 1
Target: Cyclic AMP-responsive element-binding protein 1 (CREB1, Homo sapiens, UniProt P16220, residues 1-327, full length assumed)
UniProt P16220, sequence (whole entry, looked up): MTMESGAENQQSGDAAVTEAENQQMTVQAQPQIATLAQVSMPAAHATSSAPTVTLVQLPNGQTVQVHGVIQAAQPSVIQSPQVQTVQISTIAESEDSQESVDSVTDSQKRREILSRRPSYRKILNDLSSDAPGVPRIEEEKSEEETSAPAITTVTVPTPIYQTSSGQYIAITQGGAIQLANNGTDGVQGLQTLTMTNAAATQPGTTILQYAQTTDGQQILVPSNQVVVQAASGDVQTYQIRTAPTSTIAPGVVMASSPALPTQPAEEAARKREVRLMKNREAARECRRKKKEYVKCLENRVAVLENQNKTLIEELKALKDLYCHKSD
Method: protein-binding microarray
Molecule type: double-stranded DNA, one strand shown
Sample: in vitro
Tested at: not given
Setting: k-mer, scored over probes, only values ≥0.25
Direction: higher = stronger binding
Sequence | E-score
ATACGTC | 0.344
ATATACA | 0.284
ATCATAA | 0.268
ACGTCAT | 0.496
AGTGACG | 0.462
ACATCAT | 0.277
CCGTGAC | 0.279
ATAATGA | 0.27
ACTGACG | 0.307
ATTACGC | 0.353
CATCACG | 0.295
ATATTAC | 0.308
CACGTTA | 0.283
GACGTAA | 0.436
CGTGTCA | 0.333

Sample 2
Target: Sal-like protein 4, full length isoform B (SALL4, Homo sapiens, UniProt Q9UJQ4-2, residues 1-616)
Method: universal PBM
Molecule type: double-stranded DNA, one strand shown
Sample: in vitro
Tested at: not given
Setting: 8-mer, flanks averaged, mean of replicates
Direction: higher = stronger binding
Residues (chain): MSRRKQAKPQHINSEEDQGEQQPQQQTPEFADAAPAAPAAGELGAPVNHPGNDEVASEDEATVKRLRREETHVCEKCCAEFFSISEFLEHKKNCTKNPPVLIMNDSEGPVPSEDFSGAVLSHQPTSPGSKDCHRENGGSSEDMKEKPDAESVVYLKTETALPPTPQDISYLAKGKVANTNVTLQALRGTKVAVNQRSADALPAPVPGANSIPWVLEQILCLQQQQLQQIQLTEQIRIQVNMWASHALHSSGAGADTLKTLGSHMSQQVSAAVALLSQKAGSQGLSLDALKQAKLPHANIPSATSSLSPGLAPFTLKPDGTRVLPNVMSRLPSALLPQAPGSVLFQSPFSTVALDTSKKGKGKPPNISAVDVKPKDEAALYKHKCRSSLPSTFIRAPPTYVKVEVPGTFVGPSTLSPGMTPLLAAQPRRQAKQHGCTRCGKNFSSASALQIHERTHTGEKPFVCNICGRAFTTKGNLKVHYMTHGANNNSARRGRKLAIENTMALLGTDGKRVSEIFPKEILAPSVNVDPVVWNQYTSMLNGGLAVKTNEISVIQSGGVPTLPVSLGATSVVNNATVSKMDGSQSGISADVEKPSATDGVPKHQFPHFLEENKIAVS
Sequence | E-score
CTCGGTCA | -0.0929
CAACGGGG | -0.25
CGAACTGA | -0.0909
GGGCGCCA | -0.269
GCTGACCA | -0.281
CAGGCAGG | -0.168
GGAGAAAC | -0.0959
CACTTCGA | 0.0221
CATTCTGG | -0.0611
ACTACCAT | 0.128
CTCAAGTA | 0.148
CTAGGTGC | -0.206
CCCCGCGC | -0.318
GGCTGCTA | -0.0424
ACTGCGAG | -0.161
GGTGCCAC | -0.299

Sample 3
Target: RNA binding protein fox-1 homolog 2, RRM domain, GST-SBP tag (RBFOX2, Homo sapiens, UniProt O43251-10, residues 100-194)
Method: RNA Bind-n-Seq
Molecule type: RNA
Sample: in vitro
Tested at: 365 nM
Setting: natural RNA segment, single round, ends assumed
Relative to: no-protein control
Direction: higher = stronger binding
Target sequence (chain): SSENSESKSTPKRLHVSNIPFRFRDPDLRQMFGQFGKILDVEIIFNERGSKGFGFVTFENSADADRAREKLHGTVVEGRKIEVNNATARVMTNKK
Sequence | RBNS enrichment (R)
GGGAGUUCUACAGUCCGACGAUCAAGGCUCAAACAGAUGAUGUUUUUUCCACAGAAAAACAAAUUGUUGAAUCUAUUCCGUGCAUAUUUAAGGAUUUUGAAUUGAUUUUGAAAAUCAUGAAACUUGAACUAUUUGGAAUUCUCGGGUGCCAA | 0.454
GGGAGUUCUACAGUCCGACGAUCGAUGGUUGCAGAAGCCACACAGGGUUAAAGUAAAUUCUGUCUUUGCCCACCAGGGGAUCAAACCCCUGCUGAUCUUGAUAUCAUAUUUCUGUCAUUUGCCAGUUGAUGGAUGGAAUUCUCGGGUGCCAA | 0.328
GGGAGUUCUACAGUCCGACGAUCAUGCACAUGGUUAAUGCACAUGUUACUUUUAAAUCAUUAGGAUAUCCCUCACCUGUUCCUGAUGAAUAAAAAGUGUGUUAAAGACCAAAAUUCUUGGCAUAAUAAUCAGCUGGAAUUCUCGGGUGCCAA | 0.465
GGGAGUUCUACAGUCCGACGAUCGCAGGAACUAGGCACAAGCUCUCUGAGCCAGUCCCUCAGCCACUGAAGUCCCCCUUUCUCCUUUUUUAUGAUGACAUUUUGGUUGUGCGUGCCUGUGUGUGUGUGUGUGUUGGAAUUCUCGGGUGCCAA | 2.93
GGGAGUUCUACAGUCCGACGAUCAAAUCUAGAAGCCUUCUCAUGUUGCCUGGUCACCUACUCCAUAAAGUGUGGGCCUUGCCUGGAAAGGAUGUUAUCACUGUCCUGCUCACAGGAACAGCCCUCUUAAUCUGUGGAAUUCUCGGGUGCCAA | 0.374
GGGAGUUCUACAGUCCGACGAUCCUCUCCCACCCUUCCUGAACCAUGACCACCACCAGCUCUAGGGUCGUAAUGUUGGAGAUCAGGAAUAUUGGUUGUGAUGACAAGAAAGAGCCCACUUACUCCUCCUCGUUUGGAAUUCUCGGGUGCCAA | 0.533
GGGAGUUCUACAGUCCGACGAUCGCUCUGCCGUGUUCAGACGUCGGCUACUCCGUGGCUCCACCUGACCUCCGAAUGCUAUUUGCUCCCAGGCCAGCACUGCACUGUCUGGAGGGGGCAGAGACCACAGGAGAUGGAAUUCUCGGGUGCCAA | 0.568
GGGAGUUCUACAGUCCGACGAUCUCUAAGACAGGAAGGAAAGUGAAGGCAGAGUGAGCAGGUAAGAGAGGGAUAUACAAGGUCACAUUUCAGACACCCACUCGGCAUACCCUGCCGUACUGCAUCAUCAUUUGUGGAAUUCUCGGGUGCCAA | 0.371
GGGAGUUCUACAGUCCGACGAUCUGAGGUGCUGAAGGGCUCUUUUCAUAAGAAGCUAAGGCACUGCUGCCUGCCCCAGGUGUCCCGCUCCUCUCAGAGUCCUCCCCCUACCAGGUAGUGUGUAGCUCCAUUUCUGGAAUUCUCGGGUGCCAA | 0.484
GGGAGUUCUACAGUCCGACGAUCAAAGGAAAAGAACACUAGCUAAGGAAGGGAAAGGGAAGUGAUAUCAUAAAAGUAGCAACCUUCAUUUUACAUUCUGUCUGUUUUUCUUUUUUUGCUUUGUUUUGUUUGUGUGGAAUUCUCGGGUGCCAA | 0.328
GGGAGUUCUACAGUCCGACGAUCUACUGCACCACCUUGAAAAUGUUGUUUCCAGUUUUAAAAUAAGCAAUAAAUAUUUGAAAUGCUUCUGAUUUUUCAUUUUCAUUUAAAAACAUUAAAUUAAAUGUAAUGAGUGGAAUUCUCGGGUGCCAA | 0.974
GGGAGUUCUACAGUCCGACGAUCUGGAGGAGGGAGGCCACAACUCCGAGCUGCCCACCUGGUGCUGAGCUGGGGCCCCGCCUCCUUUCUGUUUUAUUUUUGAGGAAAUAAAAUAACCAAGUGCUAAAUCUUGUUGGAAUUCUCGGGUGCCAA | 0.44

Sample 4
Target: Centromere-binding protein 1, full length, N-terminal tag (CBF1, Saccharomyces cerevisiae, UniProt P17106, residues 1-351)
UniProt P17106, sequence (whole entry, looked up): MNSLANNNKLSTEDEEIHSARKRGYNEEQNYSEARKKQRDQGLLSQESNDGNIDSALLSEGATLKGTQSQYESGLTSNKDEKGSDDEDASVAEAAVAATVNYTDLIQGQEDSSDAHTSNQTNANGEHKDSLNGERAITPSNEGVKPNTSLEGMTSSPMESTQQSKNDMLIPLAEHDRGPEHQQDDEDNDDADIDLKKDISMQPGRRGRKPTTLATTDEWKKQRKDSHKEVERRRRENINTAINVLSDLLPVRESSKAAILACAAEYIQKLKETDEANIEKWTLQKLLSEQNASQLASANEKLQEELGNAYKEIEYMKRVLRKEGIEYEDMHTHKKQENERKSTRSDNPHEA
Method: protein-binding microarray
Molecule type: double-stranded DNA, one strand shown
Sample: in vitro
Tested at: 0.8 µM
Setting: whole 60-bp probe, no competitor
Direction: higher = stronger binding
Sequence | fluorescence intensity
CTAGCTTGCCCTTACATCAGAATTACCAAGCAATTCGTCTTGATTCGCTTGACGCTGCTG | 499 a.u.
GAATTTCCCACAACCGGCACCACCAATTGACCTTAGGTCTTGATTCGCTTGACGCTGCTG | 519 a.u.
CTAATAACTTCCATTCGGGTGATACCTGCAATATTCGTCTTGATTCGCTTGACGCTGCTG | 543 a.u.
CTAGCACCTCCTAACATCACCATACTACGTACATTCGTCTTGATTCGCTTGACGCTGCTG | 573 a.u.
TGTACGAAGCTATATGGCATGACTATAGTAGTTAGGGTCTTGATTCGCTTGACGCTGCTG | 541 a.u.
CTATGCCCAGATGGTTCTGATGTTCTTTATCTCTTCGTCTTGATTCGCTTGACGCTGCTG | 506 a.u.
GAAGCATATTGCACTAACGTGAGGTGTACATCATAGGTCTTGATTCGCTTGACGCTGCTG | 526 a.u.
GAAAGCATAAACTATCACGTTGAAGATAGCATATAGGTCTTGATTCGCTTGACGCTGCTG | 780 a.u.
CTAATACCCGGAAGTCGCGTGATCTTTTTTTTTTTCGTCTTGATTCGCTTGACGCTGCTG | 3580 a.u.
CCTAACTACTATATAATCGTGATATAGCTTCGTACAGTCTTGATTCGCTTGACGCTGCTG | 607 a.u.
CCTAACTACTATAGTGGTGATCCATAGCTTCGTACAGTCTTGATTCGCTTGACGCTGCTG | 546 a.u.
CTAGAGAAGTACTGATGGCTAATAATTGTTGGATTCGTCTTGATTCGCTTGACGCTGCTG | 518 a.u.
CTAGTCACTCCGTCACACATGACAGAATTGCGTTTCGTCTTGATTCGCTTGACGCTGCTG | 875 a.u.
CTAATCAGTGGTAGCAACGTGGTAGCACGGAAGTTCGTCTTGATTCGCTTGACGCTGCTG | 576 a.u.
GAAAGAGAACATGATCACGATACACGACTAGCGTAGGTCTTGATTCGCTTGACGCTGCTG | 1610 a.u.
GAAATTACACAGCTACATGTGATATATATCGGGTAGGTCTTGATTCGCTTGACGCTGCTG | 1510 a.u.
CTATGTAGTATTGAACGTGACAGGAAACAAAAATTCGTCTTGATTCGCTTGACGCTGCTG | 1660 a.u.
CTAGAGAAGATCTATCACACGATATCTCCATAGTTCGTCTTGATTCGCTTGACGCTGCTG | 535 a.u.
CTACCCATATGGATGCACGTTGAAAGCACTGTGTTCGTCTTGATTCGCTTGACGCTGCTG | 570 a.u.
GAATGATTACTGGTTAACGTGCTTGAAGAAGAATAGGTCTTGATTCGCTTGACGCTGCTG | 722 a.u.
CTACGAGAAACTGGGCGTGTGTGCTAACCAAGATTCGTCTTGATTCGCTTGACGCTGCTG | 529 a.u.

Sample 5
Target: Histone acetyltransferase KAT6A, winged helix 1, GST fusion (KAT6A, Homo sapiens, UniProt Q92794, residues 1-85)
Method: protein binding microarray
Molecule type: double-stranded DNA, one strand shown
Sample: in vitro
Tested at: not given
Setting: 8-mer, flanks averaged, mean of 2 arrays, mostly near background
Relative to: not given
Direction: higher = stronger binding
Target sequence (chain): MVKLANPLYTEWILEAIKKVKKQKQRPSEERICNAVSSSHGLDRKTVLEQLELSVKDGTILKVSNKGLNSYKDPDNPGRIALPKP
Sequence | E-score
CCGGATCC | 0.111
CTTGATTC | -0.08
CAGGCATC | -0.236
GCTGGTAC | 0.0441
ATCCTACC | -0.0253
CATATAAA | 0.0235
GATAATTA | -0.072
ACCCGACT | 0.0742
GAGTGACA | -0.121
GACCTCAA | -0.254
CAGGTCCA | -0.174
ACGTATTG | 0.0677
GCTCATCA | -0.158
ACCCGTAT | 0.31
AGCTATCG | -0.156
ATTGAAGG | -0.123
AGCCTCAG | 0.00307
AGAAGGAC | -0.231
ATCTATAA | -0.0822
AACCCTGC | -0.125
CAACTTGA | -0.248
AGCAGGCG | -0.0143
CACAAATC | -0.0149
ACAGTCTC | -0.221

A few entries again (sample 4):
Sequence | fluorescence intensity
GAAATTACACAGCTACATGTGATATATATCGGGTAGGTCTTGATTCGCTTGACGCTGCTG | 1510 a.u.
TGTACGAAGCTATATGGCATGACTATAGTAGTTAGGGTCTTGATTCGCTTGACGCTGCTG | 541 a.u.
CCTAACTACTATAGTGGTGATCCATAGCTTCGTACAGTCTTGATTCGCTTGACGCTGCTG | 546 a.u.
GAATGATTACTGGTTAACGTGCTTGAAGAAGAATAGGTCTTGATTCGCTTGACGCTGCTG | 722 a.u.
GAAAGCATAAACTATCACGTTGAAGATAGCATATAGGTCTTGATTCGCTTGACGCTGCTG | 780 a.u.
CTAGCTTGCCCTTACATCAGAATTACCAAGCAATTCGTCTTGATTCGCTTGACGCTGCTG | 499 a.u.
CTACGAGAAACTGGGCGTGTGTGCTAACCAAGATTCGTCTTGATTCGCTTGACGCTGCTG | 529 a.u.
CTAGCACCTCCTAACATCACCATACTACGTACATTCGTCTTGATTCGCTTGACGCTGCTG | 573 a.u.
CTAGAGAAGTACTGATGGCTAATAATTGTTGGATTCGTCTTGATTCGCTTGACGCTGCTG | 518 a.u.
CTATGTAGTATTGAACGTGACAGGAAACAAAAATTCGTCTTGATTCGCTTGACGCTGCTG | 1660 a.u.
CTAATAACTTCCATTCGGGTGATACCTGCAATATTCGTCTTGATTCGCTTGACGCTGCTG | 543 a.u.
GAAGCATATTGCACTAACGTGAGGTGTACATCATAGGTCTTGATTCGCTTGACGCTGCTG | 526 a.u.
CTAATACCCGGAAGTCGCGTGATCTTTTTTTTTTTCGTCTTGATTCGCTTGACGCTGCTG | 3580 a.u.
CTAGTCACTCCGTCACACATGACAGAATTGCGTTTCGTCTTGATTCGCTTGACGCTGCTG | 875 a.u.
